Results pooled from the literature.
A part holds a random share of what one study measured. Changes are numbered by the printed parent chain.

Series 1
Substance: PhoQ, residues 284 288 289 292 302 303 AMDMFI
Technique: Sort-seq
Refers to: YFP reporter
Medium: E. coli
Notes: PhoQ-PhoP variant library
Together with: 10 µM Mg2+
Baseline: high Mg2+ state
Direction: higher = stronger signaling
Endpoint: fold induction
PhoP, residues 12 14 15 18 19 SHWTV (Escherichia coli, UniProt P23836): 1.4
PhoP, residues 12 14 15 18 19 STHWV (Escherichia coli, UniProt P23836): 1.26
PhoP, residues 12 14 15 18 19 QYCSL (Escherichia coli, UniProt P23836): 0.816

Series 2
Target: ABI1, truncated, D143A, DHFR fusion (Arabidopsis thaliana)
Technique: DHFR PCA, deep sequencing
Medium: yeast
Notes: methotrexate growth selection, single substitutions
Together with: (+)-ABA 0.032 µM
Baseline: wild-type fitted maximum
Direction: higher = stronger binding
Endpoint: relative binding score
Parent: PYL1, truncated, DHFR fusion (Arabidopsis thaliana); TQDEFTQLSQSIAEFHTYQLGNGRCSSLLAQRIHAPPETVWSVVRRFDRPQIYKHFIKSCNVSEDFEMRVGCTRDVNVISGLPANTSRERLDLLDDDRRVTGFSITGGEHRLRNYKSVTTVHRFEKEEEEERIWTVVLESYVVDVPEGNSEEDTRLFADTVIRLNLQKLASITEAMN; partner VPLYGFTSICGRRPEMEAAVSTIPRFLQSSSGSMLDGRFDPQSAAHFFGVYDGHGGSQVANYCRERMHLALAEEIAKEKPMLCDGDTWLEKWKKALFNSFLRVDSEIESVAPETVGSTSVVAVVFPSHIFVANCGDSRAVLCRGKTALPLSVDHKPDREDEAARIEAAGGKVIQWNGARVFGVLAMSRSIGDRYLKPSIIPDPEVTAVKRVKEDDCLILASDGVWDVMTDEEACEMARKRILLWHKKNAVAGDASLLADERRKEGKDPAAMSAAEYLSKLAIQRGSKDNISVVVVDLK
A170T: 1.04%
P50L: -1.13%
V145E: -10.2%
Q10R: 21%
E127I: 23.9%
F103L: 2.37%
S104Y: -5.81%
S27T: 7.33%
C25M: 1.23%
S140E: 9.23%
L8V: 4.48%
K54A: 3.57%
A158T: 8.25%
D3P: 7.92%
A30S: 26.7%
E109H: 4.87%

Series 3
Target: CCND3, cyclin fold, Cln2 fusion (human)
Technique: yeast growth competition, sequencing
Medium: yeast
Notes: weak parent motif
Baseline: not given
Direction: higher = stronger binding
Endpoint: normalised enrichment score
Parent: WEE1 docking peptide (human); HKTFRKLRLFDTP
HKTFRKLRLFDSP [T12S]: 0.085
HKTFMKLRLFDTP [R5M]: 0.0746
HKTFRKLRLFDTE [P13E]: 0.0647
HKTFRKLALFDTP [R8A]: 0.0772
HKTFRKLQLFDTP [R8Q]: 0.258
HKTFRKLRLFDTH [P13H]: 0.0493
HKTFRKLLLFDTP [R8L]: 0.0923
HKTFRKLRLEDTP [F10E]: 0.0274
HKTMRKLRLFDTP [F4M]: 0.199
HKTFRKLRLFDCP [T12C]: 0.136
HKTFRKLRLFPTP [D11P]: 0.115
HKTFRKLTLFDTP [R8T]: 0.158
HFTFRKLRLFDTP [K2F]: 0.00226
HKTFRKLRLFDTN [P13N]: 0.214

Series 4
Target: Interferon regulatory factor 7, full length, phosphomimetic (IRF7, Homo sapiens, UniProt Q92985, residues 1-503, S101K/S471D/S472D/S475D/S476D/S477D/S483D/S484D/S487D)
Technique: protein-binding microarray
Form: double-stranded DNA, one strand shown
Medium: in vitro
Concentration: 250 nM
Notes: 60-bp whole probe
Together with: salmon DNA 0.4 mg/ml
Baseline: random background probes
Direction: higher = stronger binding
Endpoint: log fluorescence
Shared flanks, not repeated: GCCTAGCAC … GTCTTGATTCGCTTGACGCTGCTG
Target sequence (chain): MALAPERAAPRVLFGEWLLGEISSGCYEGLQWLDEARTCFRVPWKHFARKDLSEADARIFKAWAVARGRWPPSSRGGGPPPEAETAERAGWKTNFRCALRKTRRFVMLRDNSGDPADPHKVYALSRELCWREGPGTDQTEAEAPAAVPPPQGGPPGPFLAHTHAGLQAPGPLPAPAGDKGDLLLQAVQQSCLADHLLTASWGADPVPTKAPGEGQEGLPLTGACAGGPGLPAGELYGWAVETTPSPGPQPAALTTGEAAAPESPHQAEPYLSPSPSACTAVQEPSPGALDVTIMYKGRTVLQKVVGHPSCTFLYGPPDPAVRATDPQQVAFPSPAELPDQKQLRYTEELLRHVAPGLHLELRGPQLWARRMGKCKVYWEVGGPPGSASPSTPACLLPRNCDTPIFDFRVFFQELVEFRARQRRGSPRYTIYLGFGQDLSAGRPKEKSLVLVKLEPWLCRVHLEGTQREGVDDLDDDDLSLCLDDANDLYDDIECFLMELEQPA
TTAGGTTTCGGTTTCGGTTAGTGCTAG: 14.6 z-score
GACGGTTTCCTTTTCCTGCCGTGCTAG: 6.16 z-score
TTAGATTTCGAGTTTCGATTAGTGCTA: 8.68 z-score
GACGGTTTCCTTATCCTGAGGTGCTAG: 2.99 z-score
TATAAATTATCTTTAATCCTGTGCTAG: 0.113 z-score
TTAGATTTCAGTATCAATTAGTGCTAG: 0.626 z-score
TTCCTTCTTGAACTCTTTACGTGCTAG: 1.7 z-score
TGCAACATCTACAATGGCTTTGTGCTA: -0.784 z-score
TTAGGTTTCGGATTCGGTTAGTGCTAG: 12.2 z-score
TTAGGTTTCGACTATCGTTTAGTGCTA: 5.79 z-score
GACTGTTTGGTCCTGATCCTGTGCTAG: -0.0632 z-score
GACGGTTTCCTTACCCTGACGTGCTAG: 1.49 z-score
GACGGACTGGGTATCGGGTCGTGCTAG: 0.0445 z-score
TTAGAACAGAGTTTCGATTAGTGCTAG: 7.92 z-score
